# Experimental data of several laboratories.
# A part holds a random share of what one study measured.

# Series 1
# Target: POU, POU domain (Salpingoeca helianthica)
# Technique: Spec-seq
# Form: double-stranded DNA, one strand shown
# Matrix: in vitro
# Concentration: not given
# Notes: whole probe, mean of replicates
# Reference: not given
# Reading: lower = stronger binding
# Shared flanks, not repeated: GAGTCGTCTCGTCAGCAC … CCGTAGAGCACTCAGGTC
# Residues (chain): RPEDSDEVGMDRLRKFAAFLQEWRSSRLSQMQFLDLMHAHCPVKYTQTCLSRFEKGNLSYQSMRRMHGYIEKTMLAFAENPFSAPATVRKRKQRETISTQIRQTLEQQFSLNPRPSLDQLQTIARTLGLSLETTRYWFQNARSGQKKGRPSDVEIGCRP
Strand,relative binding energy [ln ratio]
AATCTAAT,0.355
ATGCCCAC,1.28
AAAATAAT,0.0272
ATGCTTTG,1
ATTTATAT,-0.249
ATAAGTAT,0.673
ATCGGTAT,1.17
ATACCCAT,1.29
TAACTAAT,-0.609

# Series 2
# Target: Histone acetyltransferase KAT6A, winged helix 1, GST fusion (KAT6A, Homo sapiens, UniProt Q92794, residues 1-85)
# Technique: protein binding microarray
# Form: double-stranded DNA, one strand shown
# Matrix: in vitro
# Concentration: not given
# Notes: 8-mer, flanks averaged, mean of 2 arrays, mostly near background
# Reference: not given
# Reading: higher = stronger binding
# Target sequence (chain): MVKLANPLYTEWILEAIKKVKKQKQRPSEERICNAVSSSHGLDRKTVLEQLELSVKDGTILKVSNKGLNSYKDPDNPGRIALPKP
Strand,E-score
ACGACACG,-0.004
AAACGATG,0.084
GTTTGTCA,-0.0839
GACACAGC,0.0596
ACGGGTGG,0.293
CCAGATGA,-0.0982
AACATCCT,0.0243
ATCCCCGA,0.0403
CAAATACA,-0.282
GACCCACA,-0.116
GAATACCC,-0.0148
CCAACAAC,-0.229
CATACTAA,-0.0901
AAGGGTGA,-0.125
AAGTTCCC,0.158

# Series 3
# Target: Prothrombin, mature alpha-thrombin (F2, Homo sapiens, UniProt P00734)
# Technique: aptamer microarray, sandwich
# Form: DNA with 2'F-ANA
# Matrix: in vitro
# Concentration: 200 nM
# Notes: whole 15-mer aptamer, many near background
# Added: Cy3 exosite-II aptamer, 400 nM
# Reading: higher = stronger binding
# Strand: GGTTGGTGTGGTTGG
Modification,mean fluorescence intensity
2'F-ANA at 2 6 10 13 14,76.9 a.u.
2'F-ANA at 1 3 4 5 6 7 8 10 12 14,81.9 a.u.
2'F-ANA at 3 5 6 8 11 15,117 a.u.
2'F-ANA at 2 4 5 6 7 8 9 12 13 14 15,92.4 a.u.
2'F-ANA at 1 5 7 13 14,42.3 a.u.
2'F-ANA at 1 2 3 6 7 10 11 13 14 15,56.3 a.u.
2'F-ANA at 3 6 7 11 13 14 15,518 a.u.
2'F-ANA at 1 3 9 10 11 12 13 14 15,76.3 a.u.
2'F-ANA at 1 4 5 6 7 8 9 12,116 a.u.
2'F-ANA at 2 3 4 6 7 10 11 13 14,139 a.u.
2'F-ANA at 1 3 4 7 8 10 11 12 13 15,70.9 a.u.
2'F-ANA at 1 3 5 7 8 11 12 15,126 a.u.
2'F-ANA at 1 3 4 5 6 8 9 10 11 13 15,49.6 a.u.
2'F-ANA at 1 4 6 7 13,71.9 a.u.
2'F-ANA at 1 4 6 7 8 10 12 15,60.3 a.u.
2'F-ANA at 1 3 5 6 7 8 9 10 12 13 14 15,48.9 a.u.
2'F-ANA at 1 2 6 9 12 13,225 a.u.
2'F-ANA at 1 2 3 6 7 9 14 15,78.3 a.u.
2'F-ANA at 2 4 5 9 10 11 12 13,57.2 a.u.
2'F-ANA at 2 5 7 8 10 11 14,105 a.u.

# Mixed results
Molecule,target,test,system,setting,how to read,measurement,value
"PhoQ, residues 284 288 289 292 302 303 SQSLSM","PhoP, residues 12 14 15 18 19 QWHVF (Escherichia coli, UniProt P23836)","Sort-seq, measured: YFP reporter",E. coli,"PhoQ-PhoP variant library, added: 10 µM Mg2+","reference: high Mg2+ state, higher = stronger signaling",fold induction,2.65
